# Measured values from different studies.
# Numbers after ± are the reported error.
# CACNA1C: Voltage-dependent L-type calcium channel subunit alpha-1C (CACNA1C, Homo sapiens, UniProt Q13936)
# UniProt Q13936, sequence (whole entry, looked up): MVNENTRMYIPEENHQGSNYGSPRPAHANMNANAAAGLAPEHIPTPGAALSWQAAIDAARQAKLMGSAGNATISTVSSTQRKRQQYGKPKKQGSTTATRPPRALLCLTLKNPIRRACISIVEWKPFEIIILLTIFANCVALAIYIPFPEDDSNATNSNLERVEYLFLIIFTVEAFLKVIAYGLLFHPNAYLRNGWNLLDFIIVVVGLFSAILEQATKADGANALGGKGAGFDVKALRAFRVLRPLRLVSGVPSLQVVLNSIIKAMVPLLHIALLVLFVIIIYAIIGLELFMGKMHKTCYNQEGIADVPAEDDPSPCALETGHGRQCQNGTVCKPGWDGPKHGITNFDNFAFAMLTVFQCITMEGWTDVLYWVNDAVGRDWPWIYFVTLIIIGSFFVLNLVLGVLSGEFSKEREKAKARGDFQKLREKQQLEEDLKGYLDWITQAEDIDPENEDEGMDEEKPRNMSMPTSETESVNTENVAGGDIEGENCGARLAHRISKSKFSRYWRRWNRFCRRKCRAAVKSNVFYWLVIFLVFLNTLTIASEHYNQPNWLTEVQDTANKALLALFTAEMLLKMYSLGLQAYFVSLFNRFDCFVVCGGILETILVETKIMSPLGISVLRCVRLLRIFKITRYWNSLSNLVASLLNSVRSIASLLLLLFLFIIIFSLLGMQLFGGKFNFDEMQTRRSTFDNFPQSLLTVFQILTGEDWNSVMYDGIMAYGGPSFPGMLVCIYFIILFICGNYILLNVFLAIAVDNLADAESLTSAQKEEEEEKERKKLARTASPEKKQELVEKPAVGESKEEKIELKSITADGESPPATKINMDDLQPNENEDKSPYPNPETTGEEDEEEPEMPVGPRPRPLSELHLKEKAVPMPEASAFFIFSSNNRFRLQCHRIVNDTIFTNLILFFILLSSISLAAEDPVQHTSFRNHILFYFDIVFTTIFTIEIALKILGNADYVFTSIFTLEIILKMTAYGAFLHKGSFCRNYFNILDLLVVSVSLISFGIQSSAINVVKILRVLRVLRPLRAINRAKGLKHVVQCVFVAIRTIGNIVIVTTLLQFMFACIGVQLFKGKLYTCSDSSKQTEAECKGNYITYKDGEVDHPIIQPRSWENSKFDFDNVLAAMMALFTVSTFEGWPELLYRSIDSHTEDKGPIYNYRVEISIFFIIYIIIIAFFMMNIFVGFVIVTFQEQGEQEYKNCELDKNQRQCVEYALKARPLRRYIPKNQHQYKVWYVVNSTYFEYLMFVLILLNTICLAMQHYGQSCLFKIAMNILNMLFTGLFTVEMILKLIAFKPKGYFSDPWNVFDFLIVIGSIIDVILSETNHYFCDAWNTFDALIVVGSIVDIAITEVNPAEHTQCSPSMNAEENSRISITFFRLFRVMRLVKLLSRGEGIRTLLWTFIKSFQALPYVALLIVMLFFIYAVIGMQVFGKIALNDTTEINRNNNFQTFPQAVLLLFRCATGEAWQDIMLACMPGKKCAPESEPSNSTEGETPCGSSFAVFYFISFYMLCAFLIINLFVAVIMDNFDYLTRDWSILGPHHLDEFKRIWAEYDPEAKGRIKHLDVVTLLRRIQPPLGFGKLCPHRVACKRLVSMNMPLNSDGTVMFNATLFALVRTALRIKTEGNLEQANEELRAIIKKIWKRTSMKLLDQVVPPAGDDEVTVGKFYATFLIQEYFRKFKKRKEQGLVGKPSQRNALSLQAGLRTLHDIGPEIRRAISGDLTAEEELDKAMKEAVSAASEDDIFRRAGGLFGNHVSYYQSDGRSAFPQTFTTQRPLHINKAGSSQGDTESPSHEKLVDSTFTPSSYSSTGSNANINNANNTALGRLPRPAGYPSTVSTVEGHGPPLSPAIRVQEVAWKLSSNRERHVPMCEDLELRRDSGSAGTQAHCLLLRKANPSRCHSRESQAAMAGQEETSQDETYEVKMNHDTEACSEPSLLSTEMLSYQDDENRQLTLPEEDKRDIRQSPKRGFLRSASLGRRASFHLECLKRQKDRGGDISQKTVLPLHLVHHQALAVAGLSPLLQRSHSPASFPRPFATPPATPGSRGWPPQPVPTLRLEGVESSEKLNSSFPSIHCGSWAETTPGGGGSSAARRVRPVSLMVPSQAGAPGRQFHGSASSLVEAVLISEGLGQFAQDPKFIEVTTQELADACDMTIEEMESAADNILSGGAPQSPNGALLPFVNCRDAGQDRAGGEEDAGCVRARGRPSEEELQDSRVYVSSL
# CTSB: Cathepsin B (CTSB, Homo sapiens, UniProt P07858)
# CYP3A4: Cytochrome P450 3A4 (CYP3A4, Homo sapiens, UniProt P08684)
# UniProt P08684, sequence (whole entry, looked up): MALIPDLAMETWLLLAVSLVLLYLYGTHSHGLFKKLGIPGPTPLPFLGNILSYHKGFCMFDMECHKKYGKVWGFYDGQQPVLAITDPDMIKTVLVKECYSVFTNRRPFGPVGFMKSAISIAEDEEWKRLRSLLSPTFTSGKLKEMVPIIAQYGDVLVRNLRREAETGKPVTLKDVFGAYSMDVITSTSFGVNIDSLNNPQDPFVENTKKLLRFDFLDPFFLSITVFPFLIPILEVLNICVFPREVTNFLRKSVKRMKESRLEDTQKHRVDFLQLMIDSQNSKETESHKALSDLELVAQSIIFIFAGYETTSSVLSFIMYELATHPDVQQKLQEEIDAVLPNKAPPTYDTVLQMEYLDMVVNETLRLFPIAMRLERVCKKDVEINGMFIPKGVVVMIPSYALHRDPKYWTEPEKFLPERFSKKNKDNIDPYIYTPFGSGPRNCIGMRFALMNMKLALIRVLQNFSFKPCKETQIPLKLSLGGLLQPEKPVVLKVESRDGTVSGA
# UniProt O60502, sequence (whole entry, looked up): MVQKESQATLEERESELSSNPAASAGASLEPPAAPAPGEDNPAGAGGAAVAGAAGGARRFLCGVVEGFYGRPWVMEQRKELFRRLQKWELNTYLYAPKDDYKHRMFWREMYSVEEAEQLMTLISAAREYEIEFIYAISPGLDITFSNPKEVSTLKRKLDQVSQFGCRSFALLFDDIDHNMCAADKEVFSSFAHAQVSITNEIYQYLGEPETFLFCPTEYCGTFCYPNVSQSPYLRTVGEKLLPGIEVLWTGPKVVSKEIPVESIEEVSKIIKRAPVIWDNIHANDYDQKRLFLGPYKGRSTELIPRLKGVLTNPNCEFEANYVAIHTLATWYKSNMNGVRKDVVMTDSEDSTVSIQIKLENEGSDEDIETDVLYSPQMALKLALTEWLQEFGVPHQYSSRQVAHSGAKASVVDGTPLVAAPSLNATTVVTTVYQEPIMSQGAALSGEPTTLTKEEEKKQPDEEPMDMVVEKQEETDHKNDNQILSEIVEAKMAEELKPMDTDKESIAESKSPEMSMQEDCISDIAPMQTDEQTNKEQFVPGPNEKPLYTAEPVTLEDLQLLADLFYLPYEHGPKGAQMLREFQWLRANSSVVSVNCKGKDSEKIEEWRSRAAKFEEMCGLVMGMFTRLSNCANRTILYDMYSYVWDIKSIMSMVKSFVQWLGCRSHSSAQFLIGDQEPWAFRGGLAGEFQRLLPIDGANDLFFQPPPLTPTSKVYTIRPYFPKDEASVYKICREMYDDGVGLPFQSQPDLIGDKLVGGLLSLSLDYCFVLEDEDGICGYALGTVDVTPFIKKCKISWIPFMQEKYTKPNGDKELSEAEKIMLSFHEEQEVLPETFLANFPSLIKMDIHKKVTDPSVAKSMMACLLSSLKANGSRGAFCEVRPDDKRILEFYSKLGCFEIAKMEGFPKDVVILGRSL
# UniProt P14780, sequence (whole entry, looked up): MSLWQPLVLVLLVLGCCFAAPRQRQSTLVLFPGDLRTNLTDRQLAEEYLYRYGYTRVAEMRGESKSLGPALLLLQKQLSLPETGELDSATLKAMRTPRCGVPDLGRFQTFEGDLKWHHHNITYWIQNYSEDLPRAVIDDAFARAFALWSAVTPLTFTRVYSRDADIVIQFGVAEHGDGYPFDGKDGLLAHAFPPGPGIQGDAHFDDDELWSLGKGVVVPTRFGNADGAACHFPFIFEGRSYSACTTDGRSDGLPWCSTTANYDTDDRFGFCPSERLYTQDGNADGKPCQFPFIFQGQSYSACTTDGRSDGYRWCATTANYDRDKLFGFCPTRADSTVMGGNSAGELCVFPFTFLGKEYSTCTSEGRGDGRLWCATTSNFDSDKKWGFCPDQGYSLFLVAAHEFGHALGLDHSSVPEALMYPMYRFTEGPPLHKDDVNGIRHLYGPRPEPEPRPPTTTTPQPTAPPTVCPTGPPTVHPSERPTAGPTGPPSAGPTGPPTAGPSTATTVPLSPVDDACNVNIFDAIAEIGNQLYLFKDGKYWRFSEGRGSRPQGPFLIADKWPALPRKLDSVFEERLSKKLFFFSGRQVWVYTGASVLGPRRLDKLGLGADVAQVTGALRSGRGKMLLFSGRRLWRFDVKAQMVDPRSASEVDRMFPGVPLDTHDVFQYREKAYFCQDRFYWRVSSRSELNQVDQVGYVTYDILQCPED
# UniProt P16257, sequence (whole entry, looked up): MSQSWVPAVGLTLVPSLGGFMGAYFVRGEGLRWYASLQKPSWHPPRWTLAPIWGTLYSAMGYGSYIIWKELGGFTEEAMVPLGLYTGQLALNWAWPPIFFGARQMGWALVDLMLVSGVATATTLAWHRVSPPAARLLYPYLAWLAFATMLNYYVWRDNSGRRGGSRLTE
# UniProt P05178, sequence (whole entry, looked up): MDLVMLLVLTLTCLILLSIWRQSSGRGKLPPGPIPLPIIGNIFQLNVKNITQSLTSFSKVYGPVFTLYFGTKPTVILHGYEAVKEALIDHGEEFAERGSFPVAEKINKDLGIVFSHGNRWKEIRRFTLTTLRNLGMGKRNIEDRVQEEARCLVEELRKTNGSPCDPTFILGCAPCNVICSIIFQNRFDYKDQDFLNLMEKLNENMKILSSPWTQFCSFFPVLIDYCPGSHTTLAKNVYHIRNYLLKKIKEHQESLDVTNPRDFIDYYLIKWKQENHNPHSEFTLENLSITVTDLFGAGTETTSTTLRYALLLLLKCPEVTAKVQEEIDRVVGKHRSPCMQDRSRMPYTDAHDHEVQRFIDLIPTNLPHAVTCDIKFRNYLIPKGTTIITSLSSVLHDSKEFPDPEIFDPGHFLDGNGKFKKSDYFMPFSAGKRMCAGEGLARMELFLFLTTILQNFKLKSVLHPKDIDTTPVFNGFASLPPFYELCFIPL
SMILES,target,assay,system,conditions,scale,measurement,value
O=C(CSc1nnc(N2CCOCC2)n1-c1ccccc1)NCc1cccc(NC(=O)C2CC2)c1,CACNA1C,"calcium signal, fluorescence",,,,IC50,> 30000 nM
C=C(C)C(=O)NCCCCCC(=O)N[C@@H](Cc1ccccc1)C(=O)N[C@@H](CCCCN)C(=O)N[C@@H](Cc1ccccc1)C(=O)N[C@@H](CC(C)C)C(=O)NCCCCCC(=O)N[C@H](CCCCN)C(=O)N[C@H](CCCCN)C(=O)N[C@H](CCCCN)C(=O)N[C@H](CCCCN)C(=O)N[C@H](CCCCN)C(=O)N[C@H](CCCCN)C(=O)N[C@H](CCCCN)C(=O)N[C@H](CCCCN)C(=O)N[C@H](CCCCN)C(=O)N[C@H](CCCCN)C(N)=O,CTSB,"substrate, MALDI-TOF MS",,"65 µM, pH 5, 37 °C",,degradation time,≤ 5 min
NC(=S)N/N=C/c1ccccc1O,Zn2+ complex,potentiometric titration,,25 °C,,log stability constant,17.6
Br.Br.Br.O=c1c(O)cccn1CCN1CCN(CCn2cccc(O)c2=O)CCN(CCn2cccc(O)c2=O)CC1,iron(III),,,,,pH of complex dissociation onset,> 10.4
[64Cu+2].c1ccc(CNCc2ccc(CN3CCCN4CCNCCCN(CC4)CC3)cc2)nc1,CXCR4,,"NOD/SCID mouse, U87 and U87-stb-CXCR4 xenografts, muscle","iv, 30 min, ex vivo",,tissue uptake,0.46 ± 0.08 %ID/g
CN(C(=O)c1ccc2ccccc2c1)[C@H]1NC(=O)[C@H](Cc2ccccc2)NC(=O)[C@H](NC(=O)[C@@H](N)Cc2ccc(Cl)cc2)CSSC[C@@H](C(=O)N[C@@H](Cc2ccc3ccccc3c2)C(N)=O)NC(=O)[C@H](Cc2ccccc2)NC(=O)[C@H](CCCCN)NC1=O,trypsin,"substrate, RP-HPLC",,"concentration not given, 6 days, pH 8.1",,hydrolysis,28%
NC(=O)N/N=C/c1ccccn1,Zn2+ complex,potentiometric titration,,25 °C,,log stability constant,16.6
CC(C)C[C@@H]1NC(=O)[C@H](C)NC(=O)[C@H](CC2CCN(C(=N)N)CC2)NC(=O)[C@H](Cc2ccccc2)NC(=O)[C@H](CCCNC(=N)N)NC(=O)[C@H](C)NC(=O)[C@@H]2CCCN2C(=O)[C@@H](N)CSSC[C@@H](C(=O)O)NC(=O)[C@H](Cc2c[nH]c3ccccc23)NC1=O,plasmin,substrate,,,,cleavage rate,0.059 %/(h·nM plasmin)
COc1cc(-c2nc3ccccc3s2)cc(CN2CCN(CC(=O)OC(C)C)CCN(CC(=O)OC(C)C)CC2)c1O,copper(II) ion,"metal chelation, spectrophotometric titration",aqueous solution,"50 µM, pH 6.6, with: Cu(II) 50 µM",higher = stronger binding,pCu,10.3
CC(C)(C)OC[C@@H](NC(=O)CNC(=O)CN1CCN(CC(=O)OC(C)(C)C)CCN(CC(=O)OC(C)(C)C)CCN(CC(=O)OC(C)(C)C)CC1)C(=O)N[C@H](COC(C)(C)C)C(=O)NCC(=O)NCC(=O)NCC(=O)N[C@@H](Cc1ccccc1)C(=O)O,CTSB,"substrate, LC/MS",,"24 h, pH 5.0, room temperature",,metabolized peptide,56%
O=C(NCCCc1cccnc1)C(Cc1ccccc1)SCC(Cc1ccccc1)NS(=O)(=O)c1ccccc1 (stereo not drawn),CYP3A4,"enzyme activity, inhibitor",,,,IC50,260 nM
CN(C(=O)c1ccn2ncc(-c3ccc(C(N)=O)cc3)c2c1)c1ccc(C#N)cn1,major cytochrome P450 isoenzymes,,,concentration not given,,inhibition,no inhibition
CCCCCCCCCCCCCCCC(=O)OCC(CSC[C@H](N)C(=O)N[C@@H](CO)C(=O)N[C@@H](CCCCN)C(=O)N[C@@H](CCCCN)C(=O)N[C@@H](CCCCN)C(=O)N[C@@H](CCCCN)C(=O)NCCCCCC(=O)N[C@@H](CCCCN)C(=O)N[C@@H](CC(C)C)C(=O)N[C@H](C(=O)N[C@@H](Cc1ccccc1)C(=O)N[C@@H](Cc1ccccc1)C(=O)N[C@@H](Cc1ccc2ccccc2c1)C(=O)O)C(C)C)OC(=O)CCCCCCCCCCCCCCC (stereo partly drawn),"Amyloid-beta precursor protein, fibrillar amyloid-beta (APP, Homo sapiens, UniProt P05067)",dynamic light scattering,,"20 µM, 18.5 h, equimolar with amyloid-beta, whole sample",,hydrodynamic diameter,~218 nm
O=c1c(/C=N/NC(=S)N/N=C/c2ccccc2O)coc2ccccc12,Zn2+ complex,potentiometric titration,,25 °C,,log stability constant,17.1
CCCC[C@H](NC(=O)CNC(=O)CNC(=O)CN1CCN(CC(=O)O)CCN(CC(=O)O)CCN(CC(=O)O)CC1)C(=O)N[C@H]1CC(=O)NCCCC[C@@H](C(N)=O)NC(=O)[C@H](Cc2c[nH]c3ccccc23)NC(=O)[C@H](CCCNC(=N)N)NC(=O)[C@@H](Cc2ccccc2)NC(=O)[C@H](Cc2c[nH]cn2)NC1=O [copper-64 labelled],"Melanocyte-stimulating hormone receptor (Mc1r, Mus musculus, UniProt Q01727)",non-specific uptake,"female C57 mice, B16/F1 melanoma, melanoma tumour","intravenous, dose not given, 2 h, with: NDP-MSH 10 µg blockade",,tissue uptake,2.71 ± 0.42 %ID/g
CC(C)C[C@H](NC(=O)CNC(=O)[C@H](CC(C)C)NC(=O)[C@@H]1CCCN1C(=O)OCC1c2ccccc2-c2ccccc21)C(=O)N[C@@H](CCCNC(=N)N)C(=O)N[C@@H](CO)C(=O)N[C@@H](CCCCN)C(=O)O,"Matrix metalloproteinase-9 (MMP9, Homo sapiens, UniProt P14780)","protease stability, substrate, HPLC",,"500 µM, 72 h, pH 7.5, 37 °C, with: MMP9 10 U",,residual substrate,not detected
COc1cc(-c2nc3ccccc3s2)cc(CN2CCN(CC(=O)O)CCN(CC(=O)O)CC2)c1O,copper(II) ion,"metal chelation, spectrophotometric titration",aqueous solution,"50 µM, pH 6.6, with: Cu(II) 50 µM",higher = stronger binding,pCu,11.5
[64Cu+2].c1cnc(CNCc2ccc(CN3CCCN4CCNCCCN(CC4)CC3)cc2)nc1,CXCR4,,"NOD/SCID mouse, U87 and U87-stb-CXCR4 xenografts","iv, 90 min, no blocking dose",baseline: U87-stb-CXCR4 tumour over muscle,tumour-to-muscle ratio,106 ± 17.2
O=C(O)[C@@H]1C[C@@H](O)CN1C(=O)[C@@H]1CCCN1,iron(III),,,"MA2 complex, I 0.15 M NaCl",,ΔS of complex formation,-0.48 kJ/mol/K
CC(=O)Nc1ncc(CN2CC[C@H](Oc3cccc([18F])n3)C[C@@H]2C)s1,"Protein O-GlcNAcase (OGA, Homo sapiens, UniProt O60502)",PET,"healthy human, striatum and cerebellum",baseline,,peak uptake,~4 SUV
CC(C)c1nc(CN(C)C(=O)NC(C(=O)NC(Cc2ccccc2)CC(O)C(N)Cc2ccccc2)C(C)C)cs1 (stereo not drawn),CYP3A4,,,,,Kd,160 ± 40 nM
CCOC(=O)CN1CCN(CC(=O)OCC)CCN(Cc2cc(-c3nc4ccccc4s3)cc(OC)c2O)CC1,copper(II) ion,"metal chelation, spectrophotometric titration",aqueous solution,"50 µM, pH 6.6, with: Cu(II) 50 µM",higher = stronger binding,pCu,9.6
CCOc1c(C(C)(C)O)sc2cnc(Nc3ccc(N4CCC(N5CC6(COC6)C5)CC4)cc3OC)nc12,CACNA1C,"ion current, inhibitor, patch clamp",,10 µM,,inhibition,14%
COc1cc(-c2nc3ccccc3s2)cc(CN2CCN(CC(=O)OC(C)(C)C)CCN(CC(=O)OC(C)(C)C)CC2)c1O,copper(II) ion,"metal chelation, spectrophotometric titration",aqueous solution,"50 µM, pH 7.4, with: Cu(II) 50 µM",higher = stronger binding,pCu,11.3
O=C(CCC(=O)OCCNC(=O)[C@@H](Cc1ccccc1)NC(=O)[C@@H](Cc1ccccc1)NC(=O)CCNc1ccc([N+](=O)[O-])c2nonc12)NCCS(=O)(=O)O,porcine liver esterase,substrate,,"1.0 wt%, 24 h, pH 7.4, with: esterase 1 U/mL",,conversion,~11%
CCc1cc(C)nc2c(CC(=O)N(CC)CC)c(-c3ccc(OCC[18F])cc3)nn12,"Translocator protein (Tspo, Rattus norvegicus, UniProt P16257)",two-tissue compartment model,"rat C6 glioma model, brain","dose not given, 60 min dynamic PET",,total distribution volume,1.94 ± 0.279 mL/cm3
O=C(CNC(=O)C(F)(F)F)NC(CSC(Cc1ccccc1)C(=O)NCCCc1cccnc1)Cc1ccccc1 (stereo not drawn),CYP3A4,,,"16 µM, 2 h, with: 10 mM H2O2",baseline: ligand-free enzyme,heme destroyed,28%
COc1ccc2cc(NC(=O)c3cc(-c4cccnc4)nc4ccccc34)ccc2c1,CYP3A4,inhibitor,,,,Ki,420 nM
O=c1c(/C=N/NC(=S)N/N=C/c2cc(Cl)ccc2O)coc2ccccc12,Zn2+ complex,potentiometric titration,,25 °C,,log stability constant,17.3
NS(=O)(=O)Nc1ncnc(OCCOc2ncc(Br)cn2)c1-c1ccc(Br)cc1,"Cytochrome P450 2C6 (Cyp2c6, Rattus norvegicus, UniProt P05178)",metabolite formation,"female rat, recombinant enzyme",scaled by relative mRNA abundance,,contribution to total CLint,9%

# Some of these lines once more:
SMILES,target,assay,system,conditions,scale,measurement,value
COc1cc(-c2nc3ccccc3s2)cc(CN2CCN(CC(=O)OC(C)C)CCN(CC(=O)OC(C)C)CC2)c1O,copper(II) ion,"metal chelation, spectrophotometric titration",aqueous solution,"50 µM, pH 6.6, with: Cu(II) 50 µM",higher = stronger binding,pCu,10.3
O=c1c(/C=N/NC(=S)N/N=C/c2cc(Cl)ccc2O)coc2ccccc12,Zn2+ complex,potentiometric titration,,25 °C,,log stability constant,17.3
O=C(CSc1nnc(N2CCOCC2)n1-c1ccccc1)NCc1cccc(NC(=O)C2CC2)c1,CACNA1C,"calcium signal, fluorescence",,,,IC50,> 30000 nM
CCc1cc(C)nc2c(CC(=O)N(CC)CC)c(-c3ccc(OCC[18F])cc3)nn12,"Translocator protein (Tspo, Rattus norvegicus, UniProt P16257)",two-tissue compartment model,"rat C6 glioma model, brain","dose not given, 60 min dynamic PET",,total distribution volume,1.94 ± 0.279 mL/cm3
CC(C)(C)OC[C@@H](NC(=O)CNC(=O)CN1CCN(CC(=O)OC(C)(C)C)CCN(CC(=O)OC(C)(C)C)CCN(CC(=O)OC(C)(C)C)CC1)C(=O)N[C@H](COC(C)(C)C)C(=O)NCC(=O)NCC(=O)NCC(=O)N[C@@H](Cc1ccccc1)C(=O)O,CTSB,"substrate, LC/MS",,"24 h, pH 5.0, room temperature",,metabolized peptide,56%
